Experimental data of several laboratories.
Compare with care: the assays were run in different laboratories. ± marks the error that the study gave.
Temperature: 37 °C

The HC50 of `CC(=O)N[C@H](CCCCN)C(=O)N[C@H](CC(C)C)C(=O)N[C@H](CCCN)C(=O)N[C@H](CO)C(=O)N[C@H](CC(C)C)C(=O)N[C@H](CC(C)C)C(=O)N[C@H](CCCN)C(=O)N[C@@H](C(=O)N[C@H](CC(C)C)C(=O)N[C@H](CO)C(=O)N[C@H](CCCN)C(=O)N[C@H](C)C(=O)N[C@H](C)C(=O)N[C@H](C)C(=O)N[C@H](C)C(=O)N[C@H](C)C(=O)N[C@H](CC(C)C)C(=O)N[C@H](CCCN)C(=O)N[C@@H](C(=O)N[C@H](CC(C)C)C(=O)N[C@H](CC(C)C)C(=O)N[C@H](CCCN)C(=O)N[C@H](C)C(=O)N[C@H](CC(C)C)C(=O)N[C@H](CO)C(=O)N[C@H](CCCN)C(N)=O)[C@H](C)O)[C@H](C)O` is reported as 2.3 µg/mL (human erythrocytes; 18 h, pH 7.4, 50% hemolysis).
With `CC(C)C[C@H](NC(=O)[C@H](CC(N)=O)NC(=O)[C@H](CCCNC(=N)N)NC(=O)[C@@H](CC(C)C)NC(=O)[C@H](Cc1ccc(-c2ccccc2)cc1)NC(=O)[C@H](CC(=O)O)NC(=O)[C@H](C)NC(=O)[C@@H](CC(C)C)NC(=O)[C@H](CCCNC(=N)N)NC(=O)[C@H](CCC(N)=O)NC(=O)[C@@H](NC(=O)[C@@H](CC(C)C)NC(=O)[C@H](CCCNC(=N)N)NC(=O)[C@H](C)NC(=O)[C@H](Cc1ccc(-c2ccccc2)cc1)NC(=O)CN)C(C)C)C(=O)N[C@H](C(N)=O)C(C)C` the HC50 was less than 12.5 µM (human red blood cells; 1 h).
With `CC[C@H](C)[C@@H]1NC(=O)[C@H](CCCCN)NC(=O)[C@H](CCCCN)NC(=O)[C@H](Cc2ccc(O)cc2)NC(=O)[C@H](CC(C)C)NC(=O)[C@@H]2CCCN2C(=O)[C@H](C)NC(=O)CNC(=O)CNC(=O)[C@H](CO)NC(=O)CNC(=O)CNC(=O)[C@H](CO)NC(=O)[C@H]([C@@H](C)O)NC(=O)[C@H](CC(C)C)NC(=O)[C@H](CC(C)C)NC(=O)[C@H](C)NC(=O)[C@H](Cc2c[nH]c3ccccc23)NC(=O)[C@H](Cc2ccc(O)cc2)NC(=O)[C@H](Cc2c[nH]cn2)NC(=O)[C@H](CCC(=O)O)NC(=O)[C@H](Cc2ccccc2)NC(=O)[C@H]([C@@H](C)O)NC(=O)[C@H](CC(C)C)NC(=O)[C@@H]2CCCN2C(=O)CNC(=O)CNC(=O)CSC[C@@H](C(N)=O)NC(=O)[C@H](CC(C)C)NC(=O)[C@H](CCCCN)NC(=O)[C@H](CCCCN)NC(=O)[C@H]([C@@H](C)CC)NC1=O` the HC50 was greater than 64 µM (human red blood cells; 1 h).
With `CC(C)C[C@@H](NC(=O)[C@@H](C)NC(=O)[C@@H](CCCCN)NC(=O)[C@H](N)CCCCN)C(=O)N[C@H](C)C(=O)N[C@H](Cc1c[nH]cn1)C(=O)N[C@H](C)C(=O)N[C@H](CC(C)C)C(=O)N[C@H](CCCCN)C(=O)N[C@H](CCCCN)C(=O)N[C@H](Cc1c[nH]c2ccccc12)C(=O)N[C@H](CC(C)C)C(=O)N1CCC[C@@H]1C(=O)N[C@H](C)C(=O)N[C@H](CC(C)C)C(=O)N[C@H](CCCCN)C(=O)N[C@H](CCCCN)C(=O)N[C@H](CC(C)C)C(=O)N[C@H](C)C(=O)N[C@H](Cc1c[nH]cn1)C(=O)N[C@H](C)C(=O)N[C@H](CC(C)C)C(=O)N[C@H](C)C(=O)N[C@H](CCCCN)C(=O)N[C@H](CCCCN)C(N)=O` the HC50 was 79.6 ± 2.8 µM (haemolysis; human erythrocytes; 30 min, pH 7.4).
The HC50 of `CC[C@H](C)[C@@H]1NC(=O)[C@H](CCCCN)NC(=O)[C@H](CCCCN)NC(=O)[C@H](C)NC(=O)[C@H](C(C)C)NC(=O)[C@H](C)NC(=O)[C@H](CC(C)C)NC(=O)[C@H](CC(C)C)NC(=O)[C@H](C)NC(=O)[C@H](CCCCN)NC(=O)[C@H](CC(C)C)NC(=O)[C@H](CC(N)=O)NC(=O)[C@H](CC(C)C)NC(=O)[C@@H](N)CSSC[C@@H](C(N)=O)NC(=O)[C@H](CC(C)C)NC1=O` is reported as 9.19 µM (horse erythrocytes; 2 h).
`CC(C)C[C@@H](NC(=O)[C@@H](C)NC(=O)[C@@H](CCCCN)NC(=O)[C@@H](CC(C)C)NC(=O)[C@@H](C)NC(=O)[C@H]1CCCN1C(=O)[C@@H](CC(C)C)NC(=O)[C@@H](Cc1c[nH]c2ccccc12)NC(=O)[C@@H](CCCCN)NC(=O)[C@@H](C)NC(=O)[C@@H](CC(C)C)NC(=O)[C@@H](C)NC(=O)[C@@H](Cc1c[nH]cn1)NC(=O)[C@@H](CCCCN)NC(=O)[C@@H](CC(C)C)NC(=O)[C@@H](C)NC(=O)[C@@H](CCCCN)NC(=O)[C@H](N)CCCCN)C(=O)N[C@H](C)C(=O)N[C@H](Cc1c[nH]cn1)C(=O)N[C@H](CCCCN)C(=O)N[C@H](CC(C)C)C(=O)N[C@H](C)C(=O)N[C@H](CCCCN)C(=O)N[C@H](CCCCN)C(N)=O` gave an HC50 of 185 ± 18.6 µM (haemolysis; human erythrocytes; 30 min, pH 7.4).
`CC[C@H](C)[C@H](NC(=O)[C@H](CCCCN)NC(=O)[C@H](CCCCN)NC(=O)[C@H](C)NC(=O)[C@@H](NC(=O)[C@H](C)NC(=O)[C@H](CC(C)C)NC(=O)[C@H](CC(C)C)NC(=O)[C@H](C)NC(=O)[C@H](CCCCN)NC(=O)[C@H](CC(C)C)NC(=O)[C@H](CC(N)=O)NC(=O)[C@@H](N)CC(C)C)C(C)C)C(=O)N[C@@H](CC(C)C)C(N)=O` has an HC50 of 40.1 µM (horse erythrocytes; 2 h).
`O=[N+]([O-])[O-].O=[N+]([O-])[O-].O=[N+]([O-])[O-].O=[N+]([O-])[O-].[N-]=[N+]=NCCc1cc(CN(Cc2ccccn2)Cc2ccccn2)c(O)c(CN(Cc2ccccn2)Cc2ccccn2)c1.[Zn+2].[Zn+2]` has an HC50 of 95 ± 4 µM (haemolysis; human red blood cells; 3 h).
The HC50 of `CC[C@H](C)[C@@H]1NC(=O)[C@H](CCCCN)NC(=O)[C@H](CCCCN)NC(=O)[C@H](Cc2ccc(O)cc2)NC(=O)[C@H](CC(C)C)NC(=O)[C@@H]2CCCN2C(=O)[C@H](C)NC(=O)CNC(=O)CNC(=O)[C@H](CO)NC(=O)CNC(=O)CNC(=O)[C@H](CO)NC(=O)[C@H](CCC(=O)O)NC(=O)[C@H](CC(C)C)NC(=O)[C@H](CC(C)C)NC(=O)[C@H](CCCCN)NC(=O)[C@H](CCCCN)NC(=O)[C@H]([C@@H](C)CC)NC(=O)[C@H]([C@@H](C)CC)NC(=O)[C@H](CCCCN)NC(=O)[C@H](CCCCN)NC(=O)[C@H](Cc2ccc(O)cc2)NC(=O)[C@H](CC(C)C)NC(=O)[C@@H]2CCCN2C(=O)CNC(=O)CNC(=O)CSC[C@@H](C(N)=O)NC(=O)[C@H](CC(C)C)NC(=O)[C@H](CCCCN)NC(=O)[C@H](CCCCN)NC(=O)[C@H]([C@@H](C)CC)NC1=O` is reported as greater than 64 µM (human red blood cells; 1 h).
With `CCCCCCCCc1cc(CN(Cc2ccccn2)Cc2ccccn2)c(O)c(CN(Cc2ccccn2)Cc2ccccn2)c1.O=[N+]([O-])[O-].O=[N+]([O-])[O-].O=[N+]([O-])[O-].O=[N+]([O-])[O-].[Zn+2].[Zn+2]` the HC50 was 42 ± 3 µM (haemolysis; human red blood cells; 3 h).
For `CC(C)C[C@@H](NC(=O)[C@H]1CCCN1C(=O)[C@@H](CC(C)C)NC(=O)[C@@H](Cc1c[nH]c2ccccc12)NC(=O)[C@@H](CCCCN)NC(=O)[C@@H](CCCCN)NC(=O)[C@@H](C)NC(=O)[C@@H](CC(C)C)NC(=O)[C@@H](C)NC(=O)[C@@H](CC(C)C)NC(=O)[C@@H](C)NC(=O)[C@@H](CC(C)C)NC(=O)[C@@H](CCCCN)NC(=O)[C@H](N)CCCCN)C(=O)N[C@H](C)C(=O)N[C@H](CCCCN)C(=O)N[C@H](CCCCN)C(=O)N[C@H](CC(C)C)C(=O)N[C@H](C)C(=O)N[C@H](CC(C)C)C(=O)N[C@H](C)C(=O)N[C@H](CC(C)C)C(=O)N[C@H](C)C(=O)N[C@H](CCCCN)C(=O)N[C@H](CCCCN)C(N)=O`, the HC50 was 58.6 ± 10.4 µM (haemolysis; human erythrocytes; 30 min, pH 7.4).

A few entries again:
With `CC(C)C[C@H](NC(=O)[C@H](CC(N)=O)NC(=O)[C@H](CCCNC(=N)N)NC(=O)[C@@H](CC(C)C)NC(=O)[C@H](Cc1ccc(-c2ccccc2)cc1)NC(=O)[C@H](CC(=O)O)NC(=O)[C@H](C)NC(=O)[C@@H](CC(C)C)NC(=O)[C@H](CCCNC(=N)N)NC(=O)[C@H](CCC(N)=O)NC(=O)[C@@H](NC(=O)[C@@H](CC(C)C)NC(=O)[C@H](CCCNC(=N)N)NC(=O)[C@H](C)NC(=O)[C@H](Cc1ccc(-c2ccccc2)cc1)NC(=O)CN)C(C)C)C(=O)N[C@H](C(N)=O)C(C)C` the HC50 was less than 12.5 µM (human red blood cells; 1 h).
With `CC[C@H](C)[C@@H]1NC(=O)[C@H](CCCCN)NC(=O)[C@H](CCCCN)NC(=O)[C@H](Cc2ccc(O)cc2)NC(=O)[C@H](CC(C)C)NC(=O)[C@@H]2CCCN2C(=O)[C@H](C)NC(=O)CNC(=O)CNC(=O)[C@H](CO)NC(=O)CNC(=O)CNC(=O)[C@H](CO)NC(=O)[C@H]([C@@H](C)O)NC(=O)[C@H](CC(C)C)NC(=O)[C@H](CC(C)C)NC(=O)[C@H](C)NC(=O)[C@H](Cc2c[nH]c3ccccc23)NC(=O)[C@H](Cc2ccc(O)cc2)NC(=O)[C@H](Cc2c[nH]cn2)NC(=O)[C@H](CCC(=O)O)NC(=O)[C@H](Cc2ccccc2)NC(=O)[C@H]([C@@H](C)O)NC(=O)[C@H](CC(C)C)NC(=O)[C@@H]2CCCN2C(=O)CNC(=O)CNC(=O)CSC[C@@H](C(N)=O)NC(=O)[C@H](CC(C)C)NC(=O)[C@H](CCCCN)NC(=O)[C@H](CCCCN)NC(=O)[C@H]([C@@H](C)CC)NC1=O` the HC50 was greater than 64 µM (human red blood cells; 1 h).
